Measurements collected from several papers.
A part holds a random share of what one study measured.

Block 1
Target: Interferon regulatory factor 3, full length, phosphomimetic (IRF3, Homo sapiens, UniProt Q14653, residues 1-427, S386D/S396D/S398D/S402D/T404D/S405D)
Sequence of UniProt Q14653 (whole entry, unmodified, looked up): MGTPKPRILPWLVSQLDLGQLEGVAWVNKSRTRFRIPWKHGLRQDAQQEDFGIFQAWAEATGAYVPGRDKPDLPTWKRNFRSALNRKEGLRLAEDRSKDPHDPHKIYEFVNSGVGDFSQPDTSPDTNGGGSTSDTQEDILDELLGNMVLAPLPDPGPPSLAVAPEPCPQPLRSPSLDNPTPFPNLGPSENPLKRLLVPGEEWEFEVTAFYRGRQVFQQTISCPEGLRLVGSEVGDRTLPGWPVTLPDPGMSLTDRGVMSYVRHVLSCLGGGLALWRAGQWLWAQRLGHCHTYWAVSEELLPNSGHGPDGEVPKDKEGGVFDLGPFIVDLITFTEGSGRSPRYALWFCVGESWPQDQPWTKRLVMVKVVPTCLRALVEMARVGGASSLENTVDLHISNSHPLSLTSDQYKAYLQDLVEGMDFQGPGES
Method: protein-binding microarray
Molecule type: double-stranded DNA, one strand shown
Sample: in vitro
Tested at: 2540 nM top
Notes: 60-bp whole probe
With: salmon DNA 0.4 mg/ml
Baseline: random background probes
Reading: higher = stronger binding
Constant ends, left off below: GCCTAGCAC … GTCTTGATTCGCTTGACGCTGCTG
Strand | fitted relative affinity
ATGAGACTGTCACATCCCTGGTGCTAG | -0.453 z-score
TTAGGTATCGACTTGCGGTTAGTGCTA | 0.579 z-score
TTAGGACTGGGATTCGGTTAGTGCTAG | 0.0349 z-score
GCTCCAGGAAGCCTTGCCTGGTGCTAG | -0.809 z-score
CCAGGGACAAAGCGGTGCGAGTGCTAG | -0.892 z-score
TTGAGTCTTCTCCTCTAGGTGTGCTAG | -0.625 z-score
ATAGGTTTCGACACTGGGTTAGTGCTA | 2.67 z-score
GACGGTTCCCTTTTCCTTACGTGCTAG | 6.02 z-score

Block 2
Target: Histone acetyltransferase KAT6A, winged helix 2, GST fusion (KAT6A, Homo sapiens, UniProt Q92794, residues 85-181)
Method: protein binding microarray
Molecule type: double-stranded DNA, one strand shown
Sample: in vitro
Tested at: not given
Notes: 8-mer, flanks averaged, mean of 2 arrays, mostly near background
Baseline: not given
Reading: higher = stronger binding
Target sequence (chain): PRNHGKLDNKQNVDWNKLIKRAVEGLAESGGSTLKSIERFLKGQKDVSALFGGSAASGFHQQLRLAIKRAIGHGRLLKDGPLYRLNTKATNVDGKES
Strand | E-score
CGCGCCGC | 0.246
CGTATTTA | 0.035
AAACTTAG | -0.163
CTAGCGAA | 0.00796
CAATTGGA | -0.00171
GGCGACAC | 0.0876
ATTCCGGC | 0.206
ACCGACGT | 0.0478

Block 3
Target: Centromere-binding protein 1, full length, N-terminal tag (CBF1, Saccharomyces cerevisiae, UniProt P17106, residues 1-351)
Sequence of UniProt P17106 (whole entry, looked up): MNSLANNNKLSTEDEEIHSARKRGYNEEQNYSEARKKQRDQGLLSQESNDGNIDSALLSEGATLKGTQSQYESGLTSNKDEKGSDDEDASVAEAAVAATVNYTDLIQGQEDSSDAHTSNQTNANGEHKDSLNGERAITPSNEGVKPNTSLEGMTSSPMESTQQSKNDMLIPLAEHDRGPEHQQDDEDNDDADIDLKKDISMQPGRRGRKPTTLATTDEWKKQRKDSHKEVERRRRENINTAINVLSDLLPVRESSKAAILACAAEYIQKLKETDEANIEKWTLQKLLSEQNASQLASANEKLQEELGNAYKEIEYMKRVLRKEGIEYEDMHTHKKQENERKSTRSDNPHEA
Method: protein-binding microarray
Molecule type: double-stranded DNA, one strand shown
Sample: in vitro
Tested at: 0.8 µM
Notes: whole 60-bp probe, no competitor
Reading: higher = stronger binding
Strand | fluorescence intensity
CTATACACTTCCAAGTACCTGATGTGTGCTTGCTTCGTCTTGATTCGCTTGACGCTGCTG | 484 a.u.
GAAATATGTAATAGACATGTGATACATTTTTATTAGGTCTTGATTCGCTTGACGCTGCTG | 3110 a.u.
CTAGTTCCTACAGTTCACGCGCACCTCTTTCTGTTCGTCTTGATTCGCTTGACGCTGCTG | 655 a.u.
CTATTTCGCATTGTGCACGGAAGGCTTCACCTTTTCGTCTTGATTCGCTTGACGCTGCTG | 499 a.u.
CTATCCAGGTATTTACACGTTTAACTGGTTTGTTTCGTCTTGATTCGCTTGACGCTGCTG | 521 a.u.
CTATCATTGAAATTTTACGTGACACCATCATTTTTCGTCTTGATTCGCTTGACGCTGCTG | 589 a.u.
CTACCTTACGACAATTGCGTGACAAATATCACCTTCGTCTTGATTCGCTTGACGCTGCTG | 651 a.u.
CTATATATATATATGTGCGTGCGTGTGTGTGTGTTCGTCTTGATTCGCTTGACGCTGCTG | 1060 a.u.

Other studies, line by line
Molecule | target | assay | system | setting | how to read | quantity | value
PhoQ, residues 284 288 289 292 302 303 SACGEM | PhoP, residues 12 14 15 18 19 HEGLL (Escherichia coli, UniProt P23836) | Sort-seq, item: YFP reporter | E. coli | PhoQ-PhoP variant library, with: 10 µM Mg2+ | baseline: high Mg2+ state, higher = stronger signaling | fold induction | 1.44

A few entries again (block 2):
Strand | E-score
CGCGCCGC | 0.246
ACCGACGT | 0.0478
